Measured values of several laboratories.
Parts stem from different laboratories: compare values within a part only. “And” joins repeats or separate records; there may be more than shown.
Sequence of UniProt Q9NYY3 (whole entry, looked up): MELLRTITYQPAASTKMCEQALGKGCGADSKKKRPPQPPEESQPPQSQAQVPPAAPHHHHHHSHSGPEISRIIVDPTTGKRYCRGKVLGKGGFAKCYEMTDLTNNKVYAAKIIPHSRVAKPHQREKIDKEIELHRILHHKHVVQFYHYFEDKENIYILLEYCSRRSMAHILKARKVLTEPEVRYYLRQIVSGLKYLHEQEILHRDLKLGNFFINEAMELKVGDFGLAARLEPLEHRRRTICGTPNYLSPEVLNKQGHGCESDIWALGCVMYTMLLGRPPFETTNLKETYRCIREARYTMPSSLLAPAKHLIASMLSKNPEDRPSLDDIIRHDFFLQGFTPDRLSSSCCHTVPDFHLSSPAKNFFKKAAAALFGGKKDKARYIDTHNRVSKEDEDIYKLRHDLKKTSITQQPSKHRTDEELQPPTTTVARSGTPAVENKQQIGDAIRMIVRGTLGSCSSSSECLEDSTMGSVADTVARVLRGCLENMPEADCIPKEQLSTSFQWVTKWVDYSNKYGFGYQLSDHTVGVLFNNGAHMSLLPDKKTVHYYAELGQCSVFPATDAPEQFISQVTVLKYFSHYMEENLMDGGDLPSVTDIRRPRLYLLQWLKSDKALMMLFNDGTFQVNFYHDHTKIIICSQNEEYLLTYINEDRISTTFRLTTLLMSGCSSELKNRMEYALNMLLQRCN
Sequence of UniProt P68400 (whole entry, looked up): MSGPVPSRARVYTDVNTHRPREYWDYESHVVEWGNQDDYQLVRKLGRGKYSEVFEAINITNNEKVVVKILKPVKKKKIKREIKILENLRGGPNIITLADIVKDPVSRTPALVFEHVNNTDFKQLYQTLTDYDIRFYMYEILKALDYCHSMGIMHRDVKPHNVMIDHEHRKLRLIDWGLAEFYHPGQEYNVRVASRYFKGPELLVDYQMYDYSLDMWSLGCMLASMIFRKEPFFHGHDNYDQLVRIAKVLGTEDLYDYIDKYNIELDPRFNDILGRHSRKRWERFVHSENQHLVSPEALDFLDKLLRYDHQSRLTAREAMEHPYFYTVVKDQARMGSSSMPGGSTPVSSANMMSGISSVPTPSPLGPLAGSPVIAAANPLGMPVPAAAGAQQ
Sequence of UniProt O15264 (whole entry, looked up): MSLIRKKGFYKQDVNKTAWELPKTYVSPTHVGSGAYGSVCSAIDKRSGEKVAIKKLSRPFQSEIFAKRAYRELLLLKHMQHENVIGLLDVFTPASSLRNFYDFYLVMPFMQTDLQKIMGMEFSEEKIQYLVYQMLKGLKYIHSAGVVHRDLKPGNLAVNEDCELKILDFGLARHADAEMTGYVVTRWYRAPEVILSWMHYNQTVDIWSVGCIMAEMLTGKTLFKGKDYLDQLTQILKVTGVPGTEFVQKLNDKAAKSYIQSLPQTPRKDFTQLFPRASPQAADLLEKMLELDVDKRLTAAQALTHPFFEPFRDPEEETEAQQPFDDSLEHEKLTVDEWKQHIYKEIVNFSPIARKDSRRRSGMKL

Set 1
Target: DNA polymerase theta, ATPase domain (POLQ, Homo sapiens, UniProt O75417)
Sequence of UniProt O75417 (whole entry, unmodified, looked up): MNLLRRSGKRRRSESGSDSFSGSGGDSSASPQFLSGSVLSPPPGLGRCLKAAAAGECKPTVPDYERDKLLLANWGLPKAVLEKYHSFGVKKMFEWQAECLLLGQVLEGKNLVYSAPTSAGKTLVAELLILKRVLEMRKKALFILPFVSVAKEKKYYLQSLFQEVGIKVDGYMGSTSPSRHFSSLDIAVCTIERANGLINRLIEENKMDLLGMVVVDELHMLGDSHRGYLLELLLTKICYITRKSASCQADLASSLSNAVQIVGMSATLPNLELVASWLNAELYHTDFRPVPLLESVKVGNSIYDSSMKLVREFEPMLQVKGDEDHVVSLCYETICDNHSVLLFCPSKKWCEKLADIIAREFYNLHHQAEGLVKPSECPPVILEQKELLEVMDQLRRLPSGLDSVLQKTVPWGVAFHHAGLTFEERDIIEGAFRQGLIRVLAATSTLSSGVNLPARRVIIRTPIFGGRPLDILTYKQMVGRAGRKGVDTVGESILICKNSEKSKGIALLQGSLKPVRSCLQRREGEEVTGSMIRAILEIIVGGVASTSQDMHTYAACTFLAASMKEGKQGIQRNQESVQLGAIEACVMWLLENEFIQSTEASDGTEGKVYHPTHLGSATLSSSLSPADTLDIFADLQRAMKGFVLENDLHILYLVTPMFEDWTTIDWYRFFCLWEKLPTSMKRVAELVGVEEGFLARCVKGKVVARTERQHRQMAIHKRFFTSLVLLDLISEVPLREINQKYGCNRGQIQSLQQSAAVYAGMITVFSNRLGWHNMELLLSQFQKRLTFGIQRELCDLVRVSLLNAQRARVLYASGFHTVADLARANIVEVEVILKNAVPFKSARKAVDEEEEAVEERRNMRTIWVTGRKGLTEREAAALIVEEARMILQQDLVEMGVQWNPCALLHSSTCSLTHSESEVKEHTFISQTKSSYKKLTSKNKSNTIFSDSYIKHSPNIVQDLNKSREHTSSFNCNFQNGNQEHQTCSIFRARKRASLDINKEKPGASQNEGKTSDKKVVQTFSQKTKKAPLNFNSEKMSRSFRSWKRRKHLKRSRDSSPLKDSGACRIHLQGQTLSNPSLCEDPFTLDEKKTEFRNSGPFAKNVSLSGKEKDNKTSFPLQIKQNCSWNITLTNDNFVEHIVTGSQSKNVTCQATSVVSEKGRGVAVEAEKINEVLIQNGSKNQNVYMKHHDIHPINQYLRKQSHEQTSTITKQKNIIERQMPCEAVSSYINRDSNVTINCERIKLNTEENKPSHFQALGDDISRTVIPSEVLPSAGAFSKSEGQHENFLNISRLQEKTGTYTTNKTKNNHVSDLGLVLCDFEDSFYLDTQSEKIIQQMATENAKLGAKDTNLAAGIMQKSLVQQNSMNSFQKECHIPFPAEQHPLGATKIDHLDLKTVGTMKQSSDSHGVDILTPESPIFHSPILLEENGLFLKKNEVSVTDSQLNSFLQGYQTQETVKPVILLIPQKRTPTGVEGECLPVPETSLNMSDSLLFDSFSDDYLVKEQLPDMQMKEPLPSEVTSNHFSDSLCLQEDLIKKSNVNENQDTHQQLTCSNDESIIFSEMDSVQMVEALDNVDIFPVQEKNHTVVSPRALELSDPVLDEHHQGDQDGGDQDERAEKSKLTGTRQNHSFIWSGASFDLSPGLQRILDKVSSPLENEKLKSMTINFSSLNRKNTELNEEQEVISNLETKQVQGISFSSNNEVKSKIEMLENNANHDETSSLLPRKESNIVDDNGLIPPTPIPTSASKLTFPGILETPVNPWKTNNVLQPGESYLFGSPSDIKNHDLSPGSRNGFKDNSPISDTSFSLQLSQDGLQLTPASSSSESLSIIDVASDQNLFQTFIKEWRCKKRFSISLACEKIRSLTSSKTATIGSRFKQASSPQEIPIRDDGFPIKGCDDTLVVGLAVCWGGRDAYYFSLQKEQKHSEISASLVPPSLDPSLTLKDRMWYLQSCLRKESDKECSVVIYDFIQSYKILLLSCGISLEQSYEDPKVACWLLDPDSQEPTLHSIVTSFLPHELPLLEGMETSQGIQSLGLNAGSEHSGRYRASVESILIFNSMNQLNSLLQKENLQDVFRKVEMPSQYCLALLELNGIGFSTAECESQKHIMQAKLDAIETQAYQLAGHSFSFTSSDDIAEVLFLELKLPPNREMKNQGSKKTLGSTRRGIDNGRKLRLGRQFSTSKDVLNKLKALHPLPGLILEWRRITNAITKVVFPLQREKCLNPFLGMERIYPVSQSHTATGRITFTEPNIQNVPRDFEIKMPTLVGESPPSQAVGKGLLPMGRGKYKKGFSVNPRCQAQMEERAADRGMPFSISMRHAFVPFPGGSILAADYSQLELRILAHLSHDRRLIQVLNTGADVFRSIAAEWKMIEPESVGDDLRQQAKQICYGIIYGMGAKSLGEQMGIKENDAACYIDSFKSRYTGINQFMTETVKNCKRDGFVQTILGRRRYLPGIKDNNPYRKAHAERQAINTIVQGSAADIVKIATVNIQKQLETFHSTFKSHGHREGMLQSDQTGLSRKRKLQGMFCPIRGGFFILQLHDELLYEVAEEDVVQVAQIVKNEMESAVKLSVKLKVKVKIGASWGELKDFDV
Read-out: enzyme activity
Action: inhibitor
Tested at: 77 µM
Quantity: remaining activity
CCCN(CCC)C1CCc2cccc(O)c2C1 (stereo not shown): 113%
CC(=O)NC1CCSC1=O (racemic): 95.7%
CCCN(CCC)C1CCc2ccc(O)cc2C1 (stereo not shown): 104%

Set 2
Cell line: Huh-7
Tested at: 10 µM
Time: 24 h
Quantity: viability
CC(CC(C(N)=O)(c1ccccc1)c1ccccc1)N(C)C (stereo not shown): 95.8%
CCC(=O)O[C@H]1CC[C@H]2[C@@H]3CCC4=CC(=O)CC[C@]4(C)[C@H]3CC[C@]12C: 86.3%
CC(C)(N)Cc1ccccc1: 102%

Set 3
SMILES: CN[C@@H]1C[C@H]2O[C@@](C)([C@@H]1OC)n1c3ccccc3c3c4c(c5c6ccccc6n2c5c31)C(=O)NC4
Read-out: enzyme activity
Action: inhibitor
Tested at: 0.5 µM
Baseline: control
Quantity: remaining activity
MAPK13 (Homo sapiens, UniProt O15264): 86.6%
PLK2 (Homo sapiens, UniProt Q9NYY3): 94.8% and 97.5%
WNK2 (Homo sapiens, UniProt Q9Y3S1): 93.1%
CSNK2A1 (Homo sapiens, UniProt P68400): 101%

Single results of other studies
Cell line: A-375
Tested at: 100 µM
Time: 18 h
CCCC[N+]1(C)[C@@H]2C[C@@H](OC(=O)[C@H](CO)c3ccccc3)C[C@H]1[C@@H]1O[C@@H]12 (stereo partly shown) — viability: 101%
COc1ccc2c(c1)[C@]13CCCC[C@@H]1[C@H](C2)N(C)CC3 — viability: 95.4%
CCC(=O)O[C@H]1CC[C@H]2[C@@H]3CC[C@H]4CC(=O)[C@H](C)C[C@]4(C)[C@H]3CC[C@]12C — viability: 52%

Excerpt of the above (set 3):
MAPK13 (Homo sapiens, UniProt O15264): 86.6%
